{"data": "Published values of several laboratories", "note": "Lines come from different studies, so protocols differ.", "sequence of UniProt P54760 (whole entry, looked up)": "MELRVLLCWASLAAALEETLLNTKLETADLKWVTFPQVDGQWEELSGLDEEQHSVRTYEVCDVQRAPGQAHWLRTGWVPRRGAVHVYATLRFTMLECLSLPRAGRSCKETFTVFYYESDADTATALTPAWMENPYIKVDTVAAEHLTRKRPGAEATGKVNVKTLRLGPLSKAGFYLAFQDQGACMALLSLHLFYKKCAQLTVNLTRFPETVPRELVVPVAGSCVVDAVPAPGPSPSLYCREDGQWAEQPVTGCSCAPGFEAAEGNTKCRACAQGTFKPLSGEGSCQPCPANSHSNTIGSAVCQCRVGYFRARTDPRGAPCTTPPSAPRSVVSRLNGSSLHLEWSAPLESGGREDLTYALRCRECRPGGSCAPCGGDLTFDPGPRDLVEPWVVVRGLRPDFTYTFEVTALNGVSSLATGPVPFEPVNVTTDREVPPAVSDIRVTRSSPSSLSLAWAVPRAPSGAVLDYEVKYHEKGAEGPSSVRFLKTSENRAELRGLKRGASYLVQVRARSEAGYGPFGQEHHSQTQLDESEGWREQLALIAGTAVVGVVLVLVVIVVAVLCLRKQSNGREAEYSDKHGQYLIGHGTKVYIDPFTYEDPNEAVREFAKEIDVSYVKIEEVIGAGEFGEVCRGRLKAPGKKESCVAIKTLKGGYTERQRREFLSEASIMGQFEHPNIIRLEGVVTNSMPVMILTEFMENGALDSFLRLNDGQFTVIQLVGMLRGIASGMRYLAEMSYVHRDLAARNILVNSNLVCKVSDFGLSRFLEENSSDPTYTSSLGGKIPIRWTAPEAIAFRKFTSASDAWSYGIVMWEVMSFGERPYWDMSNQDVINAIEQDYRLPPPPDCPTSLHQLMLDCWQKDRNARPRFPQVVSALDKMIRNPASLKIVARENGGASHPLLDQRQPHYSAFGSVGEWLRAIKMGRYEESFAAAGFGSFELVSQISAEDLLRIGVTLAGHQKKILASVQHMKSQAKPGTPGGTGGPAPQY"}
{"SMILES": "Cn1ncc2cc(-c3cncc(Cl)c3N3CCC4(CCNC4=O)CC3)ccc21", "target or system": "LS174T", "assay": "gene expression, microarray, item: SMPD1 mRNA", "conditions": "concentration not given, 24 h", "how to read": "relative to: untreated cells", "endpoint": "log2 fold change", "result": -2.49}
{"SMILES": "COC1CN([C@H]2CC[C@H]([C@@]3(C)Oc4c(Cl)cc(C(=O)NCc5c(SC)cc(C)[nH]c5=O)c(C)c4O3)CC2)C1", "assay": "RNA-seq, item: LRRC1 mouse homolog", "test system": "mouse, HT-1376 xenograft, whole blood", "conditions": "dose not given", "how to read": "relative to: vehicle", "endpoint": "log2 fold change", "result": 0.0893}
{"SMILES": "CCN(C(=O)c1cc(F)ccc1Oc1nncnc1N1CCC2(C1)CN([C@H](CCCN(C)CCOC)C(C)C)C2)C(C)C", "target or system": "SK-N-SH", "assay": "cell growth", "conditions": "168 h", "endpoint": "GI50", "result": "> 10000 nM"}
{"SMILES": "CC(C)c1ccc(N(C)c2ccc3c(c2)OCC[C@H]3CNc2cnccc2C(=O)O)cc1", "target or system": "NCI-H69", "assay": "cell viability, CellTiter-Glo", "conditions": "7 days", "endpoint": "IC50", "result": "7.09 nM"}
{"SMILES": "Nc1ncc(-c2cc(-c3cnn(CC(F)(F)F)c3)ncc2F)nc1C(=O)NC1CNCC(F)C1 (stereo not drawn)", "target or system": "PIP5K1A", "assay": "KINOMEscan", "conditions": "1 µM", "how to read": "relative to: DMSO control", "endpoint": "remaining binding", "result": "100%"}
{"SMILES": "CCN(CC)CC(=O)Nc1cccc(-n2cc(-c3ccc4ccc(-c5cn(-c6cccc(NC(=O)CN(CC)CC)c6)nn5)cc4c3)nn2)c1", "target or system": "RCC4", "assay": "PCR array, item: PDGFA", "conditions": "5 x IC50, 4 h, normoxia", "how to read": "relative to: untreated", "endpoint": "fold regulation", "result": -1.15}
{"SMILES": "Cc1ncsc1-c1ccc(C(C)NC(=O)C2CC(O)CN2C(=O)C(NC(=O)CCCCCCCCCCN2CCCC(Nc3ncc(Cl)c(Nc4ccccc4S(=O)(=O)C(C)C)n3)C2)C(C)(C)C)cc1 (stereo not drawn)", "target or system": "22Rv1", "assay": "RNA-seq, item: ZNF41 mRNA", "conditions": "concentration not given", "how to read": "relative to: DMSO", "endpoint": "log2 fold change", "result": -2.38}
{"SMILES": "CNS(=O)(=O)Nc1nccc(Cc2c(C)c3ccc(Oc4ncccc4F)cc3oc2=O)c1F", "target or system": "PL-21", "assay": "cell viability", "conditions": "7 days", "endpoint": "IC50", "result": "1.17 nM"}
{"SMILES": "COC(=O)c1cc(NC2=NC(=O)C(=Cc3ccc(N(C)C)cc3)S2)ccc1OC(C)=O", "target or system": "MCF7", "assay": "GC-MS, item: Lactic acid", "conditions": "1 µM", "how to read": "relative to: DMSO", "endpoint": "metabolite level", "result": "-0.17 fold change"}
{"SMILES": "CN1CCCNC(=O)c2cccc(c2)C(=O)NCCCN(C)CCCNc2cccc3c2C(=O)c2cccc(c2C3=O)NCCC1", "target or system": "SAS", "assay": "RNA-Seq, item: GPR19 mRNA", "conditions": "1 µM, 6 h", "how to read": "relative to: untreated cells", "endpoint": "log2 fold change", "result": 7.27}
{"SMILES": "Cc1nn(-c2cccc(N)c2)c(=O)c2cnc(Nc3ccc(N4CCNCC4)cc3)nc12", "target or system": "Ephrin type-B receptor 4 (EPHB4, Homo sapiens, UniProt P54760)", "assay": "kinase activity, inhibitor, SelectScreen kinase profiling", "endpoint": "IC50", "result": "1970 nM"}
{"SMILES": "C=CC(=O)Nc1cccc(Cn2ncc3cnc(Nc4cnn(CCOC)c4)nc32)c1", "target or system": "DRAK1 human", "assay": "binding, KINOMEscan", "conditions": "100 nM", "how to read": "lower = stronger binding", "endpoint": "percent of control", "result": "2%"}
{"note": "A few entries again:"}
{"SMILES": "CCN(C(=O)c1cc(F)ccc1Oc1nncnc1N1CCC2(C1)CN([C@H](CCCN(C)CCOC)C(C)C)C2)C(C)C", "target or system": "SK-N-SH", "assay": "cell growth", "conditions": "168 h", "endpoint": "GI50", "result": "> 10000 nM"}
